Results collected from several papers.
± marks the error that the study gave.
CYP2B6: Cytochrome P450 2B6 (CYP2B6, Homo sapiens, UniProt P20813)
UniProt P20813, sequence (whole entry, looked up): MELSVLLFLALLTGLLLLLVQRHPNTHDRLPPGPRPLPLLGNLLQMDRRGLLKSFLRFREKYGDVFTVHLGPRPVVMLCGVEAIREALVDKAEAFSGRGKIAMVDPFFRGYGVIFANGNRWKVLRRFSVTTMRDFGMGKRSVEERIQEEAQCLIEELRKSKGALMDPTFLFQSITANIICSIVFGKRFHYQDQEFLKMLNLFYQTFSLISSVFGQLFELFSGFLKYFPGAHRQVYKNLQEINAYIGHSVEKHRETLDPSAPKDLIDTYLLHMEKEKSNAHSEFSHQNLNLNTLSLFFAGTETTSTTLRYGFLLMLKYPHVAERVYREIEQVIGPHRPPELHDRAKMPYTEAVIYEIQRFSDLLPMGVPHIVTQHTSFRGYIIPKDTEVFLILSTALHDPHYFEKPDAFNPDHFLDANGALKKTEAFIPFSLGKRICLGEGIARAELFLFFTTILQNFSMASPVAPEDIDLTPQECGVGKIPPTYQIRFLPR
CNR2 I110L: Cannabinoid receptor 2 (CNR2, Homo sapiens, UniProt P34972, I110L)
UniProt P34972, sequence (whole entry, unmodified, looked up): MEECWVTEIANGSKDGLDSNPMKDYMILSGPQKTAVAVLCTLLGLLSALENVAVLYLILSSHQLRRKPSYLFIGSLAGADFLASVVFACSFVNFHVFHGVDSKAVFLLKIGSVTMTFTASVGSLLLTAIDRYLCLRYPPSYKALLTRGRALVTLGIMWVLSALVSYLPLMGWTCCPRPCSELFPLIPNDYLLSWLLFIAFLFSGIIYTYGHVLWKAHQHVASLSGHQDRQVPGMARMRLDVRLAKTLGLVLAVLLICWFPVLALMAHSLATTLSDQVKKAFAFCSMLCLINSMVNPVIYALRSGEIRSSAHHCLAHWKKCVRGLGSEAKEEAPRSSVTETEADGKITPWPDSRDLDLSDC
UniProt P21554, sequence (whole entry, unmodified, looked up): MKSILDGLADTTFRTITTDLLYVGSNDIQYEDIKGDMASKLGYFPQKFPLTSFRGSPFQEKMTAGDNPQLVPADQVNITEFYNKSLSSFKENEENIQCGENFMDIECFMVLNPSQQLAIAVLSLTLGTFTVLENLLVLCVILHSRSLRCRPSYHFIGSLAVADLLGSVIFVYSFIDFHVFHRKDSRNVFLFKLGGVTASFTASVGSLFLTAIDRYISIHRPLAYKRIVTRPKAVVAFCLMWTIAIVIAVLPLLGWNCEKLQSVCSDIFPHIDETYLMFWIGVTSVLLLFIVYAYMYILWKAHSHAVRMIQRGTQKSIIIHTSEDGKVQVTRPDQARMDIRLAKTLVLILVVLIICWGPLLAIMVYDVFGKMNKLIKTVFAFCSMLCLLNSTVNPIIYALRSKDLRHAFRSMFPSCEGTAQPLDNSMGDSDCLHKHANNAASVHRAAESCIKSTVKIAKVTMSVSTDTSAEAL
UniProt P35346, sequence (whole entry, looked up): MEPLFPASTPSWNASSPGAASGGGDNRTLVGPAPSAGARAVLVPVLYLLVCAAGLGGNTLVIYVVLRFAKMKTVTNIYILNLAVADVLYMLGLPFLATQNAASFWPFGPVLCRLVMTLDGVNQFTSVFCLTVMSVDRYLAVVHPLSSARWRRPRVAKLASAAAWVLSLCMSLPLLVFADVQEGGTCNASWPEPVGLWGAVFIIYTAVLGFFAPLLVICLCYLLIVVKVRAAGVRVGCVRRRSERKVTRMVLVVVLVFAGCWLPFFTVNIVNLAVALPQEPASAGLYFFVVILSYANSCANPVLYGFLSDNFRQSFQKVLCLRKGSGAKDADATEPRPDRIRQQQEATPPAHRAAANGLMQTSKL
UniProt Q01959, sequence (whole entry, unmodified, looked up): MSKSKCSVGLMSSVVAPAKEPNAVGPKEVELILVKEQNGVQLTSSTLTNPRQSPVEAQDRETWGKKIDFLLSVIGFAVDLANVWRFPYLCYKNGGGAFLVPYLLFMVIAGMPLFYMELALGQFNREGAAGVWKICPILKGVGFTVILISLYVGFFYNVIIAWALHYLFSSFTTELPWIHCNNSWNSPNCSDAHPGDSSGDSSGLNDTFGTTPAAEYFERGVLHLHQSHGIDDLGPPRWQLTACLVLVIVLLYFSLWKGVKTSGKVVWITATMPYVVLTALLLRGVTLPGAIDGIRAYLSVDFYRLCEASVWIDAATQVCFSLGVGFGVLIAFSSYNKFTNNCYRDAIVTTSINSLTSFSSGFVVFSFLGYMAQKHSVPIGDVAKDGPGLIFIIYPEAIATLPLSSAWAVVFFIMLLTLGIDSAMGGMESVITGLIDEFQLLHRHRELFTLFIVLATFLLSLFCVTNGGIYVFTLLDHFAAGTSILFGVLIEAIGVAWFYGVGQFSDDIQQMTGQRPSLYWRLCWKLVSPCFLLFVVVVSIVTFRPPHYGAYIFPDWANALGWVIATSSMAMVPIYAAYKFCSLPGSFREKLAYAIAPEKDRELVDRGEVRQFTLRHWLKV
UniProt P22001, sequence (whole entry, looked up): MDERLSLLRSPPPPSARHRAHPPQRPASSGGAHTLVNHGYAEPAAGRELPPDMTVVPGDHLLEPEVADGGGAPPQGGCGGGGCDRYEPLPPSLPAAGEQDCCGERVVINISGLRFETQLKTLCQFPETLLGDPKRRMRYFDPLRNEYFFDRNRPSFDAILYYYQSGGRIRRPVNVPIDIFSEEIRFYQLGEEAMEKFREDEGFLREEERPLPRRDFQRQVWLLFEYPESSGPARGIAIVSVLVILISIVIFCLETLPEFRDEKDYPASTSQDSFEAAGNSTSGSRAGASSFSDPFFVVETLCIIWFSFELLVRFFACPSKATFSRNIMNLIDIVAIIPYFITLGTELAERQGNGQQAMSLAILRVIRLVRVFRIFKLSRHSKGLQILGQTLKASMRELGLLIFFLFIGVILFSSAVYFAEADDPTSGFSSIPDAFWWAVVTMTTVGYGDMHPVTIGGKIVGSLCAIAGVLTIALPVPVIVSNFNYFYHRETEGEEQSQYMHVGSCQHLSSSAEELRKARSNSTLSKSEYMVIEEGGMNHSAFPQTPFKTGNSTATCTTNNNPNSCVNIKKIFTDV
UniProt P13128, sequence (whole entry, looked up): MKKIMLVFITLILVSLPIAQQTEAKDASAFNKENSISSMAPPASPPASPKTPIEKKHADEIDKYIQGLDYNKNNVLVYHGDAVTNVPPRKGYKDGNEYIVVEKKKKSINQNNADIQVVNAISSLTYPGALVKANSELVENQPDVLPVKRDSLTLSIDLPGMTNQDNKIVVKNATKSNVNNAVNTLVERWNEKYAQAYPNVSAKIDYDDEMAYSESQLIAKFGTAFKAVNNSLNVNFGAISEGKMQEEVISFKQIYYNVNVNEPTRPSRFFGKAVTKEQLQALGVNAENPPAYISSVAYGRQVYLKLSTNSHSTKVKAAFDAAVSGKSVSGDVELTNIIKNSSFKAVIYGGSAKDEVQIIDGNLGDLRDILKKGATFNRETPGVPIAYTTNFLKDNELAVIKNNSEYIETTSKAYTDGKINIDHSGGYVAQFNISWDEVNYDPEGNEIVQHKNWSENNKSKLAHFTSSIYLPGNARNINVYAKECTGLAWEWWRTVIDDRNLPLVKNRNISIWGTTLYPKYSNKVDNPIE
UniProt P40337, sequence (whole entry, looked up): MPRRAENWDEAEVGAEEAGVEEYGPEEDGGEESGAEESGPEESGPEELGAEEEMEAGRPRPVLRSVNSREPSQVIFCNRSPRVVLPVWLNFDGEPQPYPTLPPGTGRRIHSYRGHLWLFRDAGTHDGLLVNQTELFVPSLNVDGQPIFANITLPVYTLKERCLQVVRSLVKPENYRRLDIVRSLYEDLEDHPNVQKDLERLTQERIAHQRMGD

| SMILES | target | test | system | setting | measurement | value |
| --- | --- | --- | --- | --- | --- | --- |
| CSCC[C@@H]1NC(=O)[C@H](CCCNC(=N)N)NC(=O)[C@H](Cc2ccc(O)cc2)NC(=O)[C@@H](NC(=O)[C@H](CCCNC(=N)N)NC(=O)[C@H](CCCCN)NC(=O)[C@H](CC(=O)O)NC(=O)[C@H](C)N)CSSC[C@@H](C(=O)N[C@@H](CCCNC(=N)N)C(=O)N[C@@H](Cc2ccc(O)cc2)C(=O)NCC(=O)O)NC(=O)CNC(=O)[C@H](CCCCN)NC(=O)[C@H](CCCCN)NC(=O)[C@@H]2CSSC[C@H](NC1=O)C(=O)N[C@@H](CCC(N)=O)C(=O)N[C@@H](CCCNC(=N)N)C(=O)N[C@@H](Cc1ccc(O)cc1)C(=O)N[C@@H](Cc1c[nH]cn1)C(=O)N[C@@H](CCC(N)=O)C(=O)N[C@@H](CCCNC(=N)N)C(=O)N[C@@H](CCCNC(=N)N)C(=O)N[C@@H](CCC(N)=O)C(=O)N[C@@H](CCCNC(=N)N)C(=O)N[C@@H](CCCNC(=N)N)C(=O)N[C@@H](CCC(N)=O)C(=O)N2 | Potassium voltage-gated channel subfamily A member 3 (KCNA3, Homo sapiens, UniProt P22001) |  |  |  | EC50 | 70.4 ± 2.9 nM |
| CCCCCc1cc(O)c2c(c1)OC(C)(C)C1=C2[C@@H](O)[C@@](C)(O)CC1 | rat intestinal maltase | inhibitor |  |  | Ki | 216000 nM |
| CCCCCc1cc(O)c2c(c1)OC(C)(C)C1CCC(C)=CC21 (single isomer, unassigned; (-)) | CYP2B6 | inhibitor | human, pooled liver microsomes | pH 7.4, added: bupropion 12.5 to 100 µM | Ki | 380 ± 29 nM |
| C=C1C(=O)[C@]23[C@H](OC(=O)[C@H](C)N)[C@H]1CC[C@H]2[C@@]12CO[C@@]3(O)[C@H](O)[C@@H]1C(C)(C)CC[C@@H]2O | Replicase polyprotein 1ab, nsp9 (rep, Human coronavirus 229E, UniProt P0C6X1) | binding |  |  | Kd | 1000 ± 200 nM |
| CC(=O)NC1C(OC2C(CO)OC(OC3C(CO)OC(O)C(O)C3O)C(O)C2OC2(C(=O)O)CC(O)C(NC(C)=O)C(C(O)C(CO)OC3(C(=O)O)CC(O)C(NC(C)=O)C(C(O)C(CO)OC4(C(=O)O)CC(O)C(NC(C)=O)C(C(O)C(O)CO)O4)O3)O2)OC(CO)C(O)C1O (stereo not shown) | hly (Listeria monocytogenes, UniProt P13128) | binding |  |  | Kd | 6.7 nM |
| CC(C)C[C@H](NC(=O)OCc1ccccc1)C(=O)N[C@@H](C[C@@H]1CCNC1=O)C(O)S(=O)(=O)O (stereo partly shown) | Replicase polyprotein 1ab, main protease (rep, Human coronavirus NL63, UniProt P0C6X5) | viral replication |  |  | EC50 | > 50000 nM |
| CSCC[C@H](NC(=O)[C@@H]1CSSC[C@H](NC(=O)[C@H](CCCCN)NC(=O)[C@H](Cc2ccc(O)cc2)NC(=O)CNC(=O)[C@@H](N)CC(C(=O)O)C(=O)O)C(=O)N[C@@H](C(C)C)C(=O)N[C@H](Cc2c[nH]c3ccccc23)C(=O)N[C@@H](CCCCN)C(=O)N[C@@H]([C@@H](C)O)C(=O)N1)C(=O)N1C[C@H](O)C[C@H]1C(=O)N[C@@H](C)C(=O)O | Somatostatin receptor type 5 (SSTR5, Homo sapiens, UniProt P35346) | β-arrestin recruitment, agonist |  |  | EC50 | > 300000 nM |
| CCCCCn1cc(C(=O)c2cccc3c2CC(C)(C)C3)c2ccccc21 | Cannabinoid receptor 2 (CNR2, Homo sapiens, UniProt P34972, V261L) | G protein activation, agonist, BRET |  |  | EC50 | 7.94 nM |
| CCCCCc1cc(O)c2c(c1)OC(C)(C)C1CCC(CO)=CC21 (stereo not shown) | CYP2B6 | enzyme activity, inhibitor | human, liver microsomes | pH 7.4 | Ki | 2800 nM |
| CCC[C@@H](C(=O)c1ccccc1)N1CCCC1 | Sodium-dependent dopamine transporter (SLC6A3, Homo sapiens, UniProt Q01959, F76Y) | transporter uptake, inhibitor, radiometric |  |  | Ki | 60 nM |
| CCCCCn1cc(C(=O)c2ccc3c(c2)CC(C)(C)C3)c2ccccc21 | CNR2 I110L | G protein activation, agonist, BRET |  |  | EC50 | 6920 nM |
| CC1=CC(C)=[N+]2C1=Cc1ccc(CCC(=O)NCCOCCOCCOCCOCC(=O)N[C@H](C(=O)N3C[C@H](O)C[C@H]3C(=O)NCc3ccc(-c4scnc4C)cc3)C(C)(C)C)n1[B-]2(F)F | von Hippel-Lindau disease tumor suppressor, with elongin B/C (VHL, Homo sapiens, UniProt P40337) | binding, TR-FRET |  | 300 min, added: BODIPY FL VH032 | Kd | 3.04 nM |
| CCCCCn1cc(C(=O)c2cccc3ccccc23)c2ccccc21 | CNR2 I110L | G protein activation, agonist, BRET |  |  | EC50 | 11 nM |
| CCCCCc1cc(O)c2c(c1)OC(C)(C)c1cc(O)c(C)cc1-2 | rat intestinal maltase | inhibitor |  |  | Ki' | 181000 nM |
| CCC(CC)O[C@@H]1C=C(C(=O)O)C[C@H](NC(=N)N)[C@H]1NC(C)=O | neuraminidase (Influenza A virus, UniProt C3W6G3) | enzyme kinetics |  | pH 6.15, added: 500 µM 4-MUNANA | Ki | 46 ± 12 nM |
| CCCCCn1cc(C(=O)c2ccc3ccccc3c2)c2ccccc21 | Cannabinoid receptor 1 (CNR1, Homo sapiens, UniProt P21554, L359V) | G protein activation, agonist, BRET |  |  | EC50 | 85.1 nM |

Excerpt of the above:
| SMILES | target | test | system | setting | measurement | value |
| --- | --- | --- | --- | --- | --- | --- |
| CC(C)C[C@H](NC(=O)OCc1ccccc1)C(=O)N[C@@H](C[C@@H]1CCNC1=O)C(O)S(=O)(=O)O (stereo partly shown) | Replicase polyprotein 1ab, main protease (rep, Human coronavirus NL63, UniProt P0C6X5) | viral replication |  |  | EC50 | > 50000 nM |
| CCCCCn1cc(C(=O)c2cccc3c2CC(C)(C)C3)c2ccccc21 | Cannabinoid receptor 2 (CNR2, Homo sapiens, UniProt P34972, V261L) | G protein activation, agonist, BRET |  |  | EC50 | 7.94 nM |
